Measurements from different studies.
A part holds a random share of what one study measured.

Study 1
Target: RNA binding protein fox-1 homolog 2, RRM domain, GST-SBP tag (RBFOX2, Homo sapiens, UniProt O43251-10, residues 100-194)
Technique: RNA Bind-n-Seq
Molecule type: RNA
Sample: in vitro
Concentration: 365 nM
Setting: natural RNA segment, single round, ends assumed
Relative to: no-protein control
Direction: higher = stronger binding
All sequences stand within: GGGAGUUCUACAGUCCGACGAUC … UGGAAUUCUCGGGUGCCAA
Residues (chain): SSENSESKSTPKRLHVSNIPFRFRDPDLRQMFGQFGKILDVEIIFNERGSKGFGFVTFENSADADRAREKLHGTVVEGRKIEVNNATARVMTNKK
`GCCUUUCCCUGCAGGAUGAGUGAAGACGUUUGCCUCUCACAGUGUGUCUUCUACCUGCAUUUUGGCAUCAGAGCCCCCCAGCCCACCCACCACAGGCAAUUACUAGCCCU`: “RBNS enrichment (R)” 0.402.
For `CAUCCCACCCACUGCCUCUGAAGAGCUGUAGAGCAACCUGCUUUUGGCAUGGGUGGAUGGAUUUUUAAGUUGGUUUCCCAGUCAAGUUAUAUUUAAUUAAGGGACUAGUU`, “RBNS enrichment (R)” read 0.39.
Under “RBNS enrichment (R)”, `CUAGAAGCAUGUGAAGAUGCCCAAGAGCCUGGAGACAUUGCCAUCCUUCCUACAGAAACUGUUUCUCCUCCUCCCCUCCAGCCUUCACACAAGGGCCUUGGCUUUGUUGA` is recorded as 1.6.
`CUUUCUUAAAUAAGUUAGUGUUUAUUCAGCUUUGCUUUGCCCCUCCCCUCCCCUUAGCUUUGACUUAGGAAGCCAAGUUUUCUGCAUCAGAUUAUUGCAACAUUUAACCU`: “RBNS enrichment (R)” 0.897.
`AUUUUAGUUCACAAACAUAUCCAUAAGAAUGUUUACACAUGGCAGUAUCAAAGCAUAUAAAAUAUUUUCUAUGUAAGUAAAUUGCAUCUUUAUGCUAGUGAACAAAGUAG` — result for “RBNS enrichment (R)”: 0.513.
`GGAGAAAGCAAUAUUGUUAGAUCAGAUUAUAAAUUUGUUAAGUUUAAAGAUUCCUGGCAUACAGGCCUGCUCUAUAAAUUUGUUUUCCCCUUCCCUGCCAGCAGUCUUCU`: “RBNS enrichment (R)” 0.374.
`CCGCCUUAGAGCCUCGUCCCUCCCUCACUGAAGGACCUGAGCUGGCCAGGCCCUGAGAGUCUGGUCUGCGCCUUGGGAUGGGGAGUCCCAAAGCGGGACGCCGCAGGUGU` — result for “RBNS enrichment (R)”: 0.25.
For `CAGCUCCAACAUGCGGGAUGUUCAUCCUCCUACACAGAUUCUUGUUGGGUGAAACAGAUUGUCCUAUCACAAAGCAGAAUUCAACAAAGUUAAAAUUUAAGAUAAGGUUU`, “RBNS enrichment (R)” read 0.382.
`GACCACAGCCGCGCUGCCGAGGGCCAAGCACAAAGGUUCCAGUGAGCGCAUGUCCCAGCCCCUGGUGGCCAGGCUCCCCUUGCUGAGCCGCUGCCACUUCACCCUGUGGG`: “RBNS enrichment (R)” 0.487.
`CUGCUAUAGUGUGAAAAUCAGGGCUAAAAACCUGAAGCCUUUGUUUAAUUAUGCUUUUCCUCUAAAUAGCAACUUAAAUAUUUGCUAGACUUUGAAUCAUCGCUAUAUCA`: “RBNS enrichment (R)” 0.759.
`AACAGAAGGUCCUGUUGGGUUUGUUGUUUUUGAGGCUGCCGAAUGGUUUUGGAAUGCAGGGUCAGCCUUGGAGUAUCUCUGAGCAUUGUGGCCUCAGCCAGGAGCGCACU`: “RBNS enrichment (R)” 3.73.
`UGGCCAAAUUUGCUUCCUCUUUCCCCUGGGGCAGUUGCCUCAUAUGGGGUCAUUACAAGACCCCUUGGGGGUGCUGCUUUGCUGCCUUCAAGAAUAAAAGCCUCUAUGAU`: “RBNS enrichment (R)” 0.371.

Study 2
Target: RING finger protein unkempt homolog, zinc fingers 1-6, GST-SBP tag (UNK, Homo sapiens, UniProt Q9C0B0, residues 30-357)
Sequence of UniProt Q9C0B0 (30-357, looked up): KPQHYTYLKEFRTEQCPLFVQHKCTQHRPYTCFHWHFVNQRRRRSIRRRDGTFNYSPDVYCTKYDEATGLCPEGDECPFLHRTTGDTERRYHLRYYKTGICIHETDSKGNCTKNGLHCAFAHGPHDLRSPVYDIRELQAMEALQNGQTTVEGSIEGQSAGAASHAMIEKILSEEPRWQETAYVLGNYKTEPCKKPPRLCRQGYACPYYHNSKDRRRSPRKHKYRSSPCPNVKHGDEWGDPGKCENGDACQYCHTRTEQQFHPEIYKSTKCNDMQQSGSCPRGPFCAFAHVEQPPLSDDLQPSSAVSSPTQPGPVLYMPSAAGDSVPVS
Technique: RNA Bind-n-Seq
Molecule type: RNA
Sample: in vitro
Concentration: not given
Setting: RNA with constant flanks, human and mouse sites, ends assumed
Relative to: input RNA pool
Direction: higher = stronger binding
All sequences stand within: GGGAGUUCUACAGUCCGACGAUC … CAACAGAGGAUUGAGCAUCA
With `GAUUGAUCUCUGGGCUGGUGAACAUAAUCUCUGUCCCAGUCAGAAAAGGAGAGAGGAAAUUAGCAGAGCGAUUGGUGGAGAAUGAUAUCUGUCAAAAGAAACACUUGGAGAGCACUGAGU` the bound/input enrichment was 0.538 ratio.
For `UCCUCGUCCUCUGACGUCAGUGAGGGCAGGGCAGCUGAAGCAUCUCAGGGAUUUAGAUUUCUUAGGCGAAGAUGGGGGUUGUCGUCGCUCAGCCAAAAUCAUAGCUCUGAACCAGAGGCA`, the bound/input enrichment was 0.435 ratio.
With `CAGGAAUGGAAGGCAAACAGUUCUGCUAUUAUUGAUCACAUAUUUGCCAGUAAAGCAGUGGUGAAUGCCGCAAUUCCAGCCUAUCACCUAAGAGACCUUAUCAAAAGCAUGCUUCAUGAU` the bound/input enrichment was 0.112 ratio.
`UUUCUACCUACCAUGAUCAAGUGCUUGUCAGUUGAAGUACAAGCCAAAUUGCGUUCUGGUUUGGCCAUAAGCUCCUUGGGCCAAUGUGUUGAGGAACUUGCCCUCAACAGUAUUGAUGCU` gave a bound/input enrichment of 0.158 ratio.
The bound/input enrichment of `GUGAAUCUUUAACAUUACCUGGUGUGUUCCCUAACAUUCAAACUGUGCAUUGGCCAUACCCUUAGGAGUGGUUUGAGUAGUACAGACCUCGAAGCCUUGCUGCUAACACUGAGGUAGCUC` is reported as 0.271 ratio.
With `GGACAGUCUCAGCCCCCCCUCCAACAGAAUCAGACUUCAUCGCCUGAUUCUUCCAAUGAAAAUUCCCCGGCAACUCCCCCAGAUGAGCAAGGUCAAGGUGAUGCCCCACCACAGCUUGAA` the bound/input enrichment was 0.541 ratio.
With `AGUCCAAAUCACGCAGUGGUGCACGGCAACCUGGCUUGUGUAUACUAUGAGCAAGGCCUGAUAGAUCUGGCAAUAGACACCUACAGGCGGGCUAUCGAACUACAACCACAUUUCCCUGAU` the bound/input enrichment was 0.263 ratio.
The bound/input enrichment of `CAGAUUCACAGGGAUUUGAAAGCUGGUAAUAUUCUUCUGGGUGAGGAUGGUUCAGUACAAAUAGCAGAUUUUGGGGUAAGUGCGUUCCUAGCAACAGGGGGUGAUGUUACCCGAAAUAAA` is reported as 0.54 ratio.
`CAGUUGAAGACAGAGAAGGAUGAAAAGGAACUUUAUAAGGUACAUUUGAAGAAUACAGAAAUAGAAAAUACCAAGCUUAUGUCAGAGGUCCAGACUUUAAAAAAUUUAGAUGGGAACAAA` has a bound/input enrichment of 2.77 ratio.
With `CGGGAAGCUGUAUGCAUUGUUCUUUCUGAUGACACGUGUUCUGAUGAGAAGAUUCGAAUGAAUAGAGUUGUUCGGAAUAACCUCCGAGUUCGCCUAGGAGAUGUCAUCAGCAUCCAGCCA` the bound/input enrichment was 0.156 ratio.
For `GUUCUUGAAGUGAAUAUCCCAAAGAAGCCAGAUGGAAAGAUGCGUGGUUUUGCUUUUGUUCAGUUCAAAAACCUCCUUGAAGCAGGAAAAGCUCUCAAAGGCGCGAAUAUGAAGGAGAUA`, the bound/input enrichment was 0.606 ratio.

Study 3
Target: Myc proto-oncogene protein, bHLH-zipper, MAX partner unstated (MYC, Homo sapiens, UniProt P01106, residues 368-449)
Sequence of UniProt P01106 (368-449, looked up): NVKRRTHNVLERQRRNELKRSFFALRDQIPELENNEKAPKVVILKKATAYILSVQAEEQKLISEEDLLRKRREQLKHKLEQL
Technique: protein-binding microarray
Molecule type: double-stranded DNA, one strand shown
Sample: in vitro
Concentration: not given
Setting: k-mer, scored over probes, only values ≥0.25
Direction: higher = stronger binding
For `CACACGCG`, the E-score was 0.458.
`ACACGCGG` has an E-score of 0.47.
For `CCACACCC`, the E-score was 0.33.
The E-score of `CCGTCCAC` is reported as 0.285.
`CATGGGAA` has an E-score of 0.26.
`ACGGGGGC` has an E-score of 0.257.
With `CGCCATGA` the E-score was 0.295.
`CCACGAGC` has an E-score of 0.373.
With `ACGTGGTC` the E-score was 0.438.
With `AGACACAC` the E-score was 0.279.
`CCACATGG` has an E-score of 0.481.
`CGTGGCAC` has an E-score of 0.434.
The E-score of `ACCTCGAG` is reported as 0.307.
The E-score of `CGTGCAGC` is reported as 0.361.
With `ACGATGCC` the E-score was 0.262.
`CCTACACG` has an E-score of 0.335.
With `GGCGCACA` the E-score was 0.322.
For `ATTCCACG`, the E-score was 0.367.
With `CAACCATG` the E-score was 0.366.
The E-score of `GACCCCAC` is reported as 0.301.
The E-score of `CATGTTTA` is reported as 0.369.
With `GGGCGTGA` the E-score was 0.251.
`AGCTCGTG` has an E-score of 0.312.
`CAACACGC` has an E-score of 0.399.
The E-score of `CGCCTCCC` is reported as 0.29.

Study 4
Target: Centromere-binding protein 1, full length, His-tagged (CBF1, Saccharomyces cerevisiae, UniProt P17106, residues 1-351)
Sequence of UniProt P17106 (whole entry, looked up): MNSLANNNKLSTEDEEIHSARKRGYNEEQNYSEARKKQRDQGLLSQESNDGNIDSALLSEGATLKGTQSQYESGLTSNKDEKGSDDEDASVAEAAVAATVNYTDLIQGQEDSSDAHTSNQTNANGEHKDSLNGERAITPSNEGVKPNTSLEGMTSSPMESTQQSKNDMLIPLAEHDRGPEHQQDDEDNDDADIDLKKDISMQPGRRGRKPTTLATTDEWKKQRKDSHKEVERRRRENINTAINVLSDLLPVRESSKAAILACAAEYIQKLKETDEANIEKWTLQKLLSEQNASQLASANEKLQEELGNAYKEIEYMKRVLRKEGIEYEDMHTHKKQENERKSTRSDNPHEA
Technique: competition protein-binding microarray
Molecule type: double-stranded DNA, one strand shown
Sample: in vitro
Concentration: 2 µM
Setting: whole 60-bp probe, lowest competitor level
With: Pho4 competitor, 0.05 µM
Direction: higher = stronger binding
All sequences stand within: … GTCTTGATTCGCTTGACGCTGCTG
With `CAAGGATTCCTAATTCACGTGCAAAAGCAACCGGAT` the fluorescence intensity was 1250 a.u.
For `AGATACATTACCACCTTCGTGATTGGAATGAATGGT`, the fluorescence intensity was 94.2 a.u.
The fluorescence intensity of `AGAATCAGGCATTCGCGTGTGACGGGCGTCATTCAT` is reported as 68.4 a.u.
The fluorescence intensity of `AATCACCAATGGCAAAGCGTGCAAAATCAACATTTG` is reported as 91.1 a.u.
For `CTTTCCCGATCTTGAACGGTGGGTGTAGCACATTTG`, the fluorescence intensity was 70.3 a.u.
`ACATCTGGGCAAATCGTCGTGCGGAAAATGAATTTG` gave a fluorescence intensity of 68.5 a.u.
`GCAAATTACCATTTGAGCGTGCGGAAATAAGCTCCT` has a fluorescence intensity of 85.1 a.u.
`CAAACTCGAATCCATCACGTTTCACAATTGTTCCAA` has a fluorescence intensity of 426 a.u.
`TACGCCTGTACTACCCACGTTGCCCCAGAACGTCCC` gave a fluorescence intensity of 78.4 a.u.
The fluorescence intensity of `TAGCACAGGCACCCGCACACGCAGAGCTCACAGACC` is reported as 74.9 a.u.
The fluorescence intensity of `GGCAGGCGAAAATCCTATGTGCGTAGAGCTGATACA` is reported as 61.2 a.u.
`CGTCCTAGTGATTGTCTGGTGGGTGCCATGAGGAAG` gave a fluorescence intensity of 79 a.u.
`ATTCGAAATGATTCGGGCGTGCAAATGAAGCTCTTG` has a fluorescence intensity of 80.2 a.u.
`GAGCCCGTAATCCAACACGTTTGATATTTTGTGCGA` gave a fluorescence intensity of 98.7 a.u.
The fluorescence intensity of `GTAACCGGTCAAAGCCATGTGAGCCATGAATAAAGA` is reported as 148 a.u.
For `AACCTACATTCTATTCTCGTGATGGTTCTCGTAATT`, the fluorescence intensity was 206 a.u.
`CGTCCTAGTGATTGTCACGACACTTCCATGAGGAAG` has a fluorescence intensity of 221 a.u.

Some of these lines once more (study 4):
For `CTTTCCCGATCTTGAACGGTGGGTGTAGCACATTTG`, the fluorescence intensity was 70.3 a.u.
`TACGCCTGTACTACCCACGTTGCCCCAGAACGTCCC` gave a fluorescence intensity of 78.4 a.u.
The fluorescence intensity of `GTAACCGGTCAAAGCCATGTGAGCCATGAATAAAGA` is reported as 148 a.u.
`GCAAATTACCATTTGAGCGTGCGGAAATAAGCTCCT` has a fluorescence intensity of 85.1 a.u.
`GAGCCCGTAATCCAACACGTTTGATATTTTGTGCGA` gave a fluorescence intensity of 98.7 a.u.
The fluorescence intensity of `AGAATCAGGCATTCGCGTGTGACGGGCGTCATTCAT` is reported as 68.4 a.u.
The fluorescence intensity of `TAGCACAGGCACCCGCACACGCAGAGCTCACAGACC` is reported as 74.9 a.u.
For `AGATACATTACCACCTTCGTGATTGGAATGAATGGT`, the fluorescence intensity was 94.2 a.u.
`ACATCTGGGCAAATCGTCGTGCGGAAAATGAATTTG` gave a fluorescence intensity of 68.5 a.u.
